Published values of several laboratories.
Parts stem from different laboratories: compare values within a part only.

Series 1
Target: Interferon regulatory factor 7, full length, phosphomimetic (IRF7, Homo sapiens, UniProt Q92985, residues 1-503, S471D/S472D/S475D/S476D/S477D/S483D/S484D/S487D)
Technique: protein-binding microarray
Form: double-stranded DNA, one strand shown
Sample: in vitro
Tested at: 2200 nM top
Notes: 60-bp whole probe
With: salmon DNA 0.4 mg/ml
Baseline: random background probes
Direction: higher = stronger binding
Quantity: fitted relative affinity
Shared flanks, not repeated: GCCTAGCAC … GTCTTGATTCGCTTGACGCTGCTG
Target sequence (chain): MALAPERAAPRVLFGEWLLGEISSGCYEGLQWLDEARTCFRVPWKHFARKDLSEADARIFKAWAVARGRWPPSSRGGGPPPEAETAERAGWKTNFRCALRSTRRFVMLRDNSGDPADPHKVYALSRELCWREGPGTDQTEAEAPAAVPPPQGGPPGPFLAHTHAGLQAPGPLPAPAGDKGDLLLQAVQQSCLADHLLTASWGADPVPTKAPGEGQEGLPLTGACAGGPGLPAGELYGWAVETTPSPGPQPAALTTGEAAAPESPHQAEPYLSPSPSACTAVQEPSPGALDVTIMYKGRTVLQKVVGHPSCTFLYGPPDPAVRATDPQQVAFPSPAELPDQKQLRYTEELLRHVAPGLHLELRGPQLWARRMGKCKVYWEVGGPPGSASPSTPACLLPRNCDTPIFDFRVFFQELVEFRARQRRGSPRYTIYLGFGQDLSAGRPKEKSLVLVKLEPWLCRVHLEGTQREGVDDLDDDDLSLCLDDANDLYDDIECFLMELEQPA
TTCCCTCTGCTCCTCTTTTTGTGCTAG: 3.01 z-score
TTAGGTTCCCTTTTCATTTAGTGCTAG: 2.64 z-score
TTAGGTTCCCTTTTCCTTGAGTGCTAG: 2.64 z-score
GACGGTCTCCCTATCCTGACGTGCTAG: 0.907 z-score
GACGGTTTCTGGTATCGGGACGTGCTA: 2.57 z-score
TCCCTTTCAGTTTTCCTCTGGTGCTAG: 5.24 z-score
GACGAACTGAGTATCGCGACGTGCTAG: -0.133 z-score
TCAGATTTTGGTCTTTCACTGTGCTAG: 1.19 z-score
CACAACCAAACAAGAAGATGGTGCTAG: -0.212 z-score
GTCGGTTTCGGGACTGGGGACGTGCTA: 4.87 z-score
TTAGGTATCGGGTTTGGGTTAGTGCTA: 1.19 z-score
ATCTCTTTCCTTACTTCCCAGTGCTAG: 3.08 z-score
CTACACATCTCACTCTAATCGTGCTAG: 1.72 z-score
GACGATTTCAGTTTTGAGACGTGCTAG: 2.05 z-score
GACGGTTCCGGTTTCGGGACGTGCTAG: 5.63 z-score
GACGGACTGGGTCTGGGGACGTGCTAG: -0.888 z-score
TGCCTTTTGCTTTACTGATGGTGCTAG: 2.31 z-score
TCATGAGTCACTTCTGGTACTGTGCTA: 0.543 z-score
TTAGAACTGGGGTATTGATTAGTGCTA: 0.112 z-score
GACGAGTTCAGTATCGAGACGTGCTAG: 0.272 z-score
TTAGATTTCGGGTATGGATTAGTGCTA: 2.46 z-score
TCATATATGTGATTAAAACTGTGCTAG: 0.406 z-score
TTGGGTCTCCTTATCCTTTAGTGCTAG: 0.992 z-score
TTAGGTATCGGTTTCAGTTAGTGCTAG: 3.33 z-score

Series 2
Target: RING finger protein unkempt homolog, zinc fingers 1-6, GST-SBP tag (UNK, Homo sapiens, UniProt Q9C0B0, residues 30-357)
Technique: RNA Bind-n-Seq
Form: RNA
Sample: in vitro
Tested at: not given
Notes: RNA with constant flanks, ends assumed
Baseline: input RNA pool
Direction: higher = stronger binding
Quantity: bound/input enrichment
Shared flanks, not repeated: GGGAGUUCUACAGUCCGACGAUC … CAACAGAGGAUUGAGCAUCA
Residues (chain): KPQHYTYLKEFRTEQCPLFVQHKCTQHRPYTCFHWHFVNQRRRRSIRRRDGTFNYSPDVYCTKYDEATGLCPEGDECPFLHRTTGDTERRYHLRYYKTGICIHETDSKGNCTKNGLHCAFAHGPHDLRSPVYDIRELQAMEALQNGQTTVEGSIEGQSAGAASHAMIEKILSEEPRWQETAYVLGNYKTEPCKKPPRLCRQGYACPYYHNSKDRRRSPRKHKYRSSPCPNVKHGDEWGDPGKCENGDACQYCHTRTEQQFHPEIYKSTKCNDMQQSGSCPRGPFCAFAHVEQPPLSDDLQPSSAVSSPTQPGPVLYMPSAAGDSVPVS
GAAGUUUGUAUCAAUCCAUACCACUAUAAGAGAGUGGAGAGUCCAGUCUUACCUCCAGUAUCCGUGCCUCGUCACAAUGAAUUCAAUCCACAACACAGCCUUCUGGUUCAGUUCAGGAAC: 0.204 ratio
AAUUUACAGCCUCUUUCUGAAAGGCUGACACUUCUUGCCAUUUUCGUAUCAACUUUUCUCUUCCGCCUGACAUGGCAAUUUAACCAGUUCAUGAUGCUGCUGCAGGCACUGGUGCUGUUC: 0.266 ratio
GGAGCCAGACAUAUGGAAAGUGAGAAACUUGCUCAAAUAUUGGCAGCUAGACAGUCCGAAAUUAAACAGAUUCCAUCUGAUGGCCACUGUAUGUAUAAAGCCAUUGAAGAUCAACUGAAA: 0.202 ratio
GAUGUUCCACCUGCUCAGAUCUAUCCUCUCCCUAAGCAACAGAACCUUCCUAAGAGACCUACCCGUUUGCCUUUGAACACCAAAAAUUCAACAAAAGAACCCCGGCUAAAAUUUGGCAAC: 0.463 ratio
ACAAAGCAGCUGACAGAAAUGCUACCCAGCAUCUUAAACCAGCUUGGUGCGGAUAGUCUGACCCGUUUAAGGAGACUGGCCGAAGCUCUGCCCAAACAAUCUGUGGAUGGAAAAGCACCA: 0.0435 ratio
AGAUUCCCCCUCCUGAGACCUCCUCCGAAGUUGGAGUCUCUUACAGAUGCCUCAUCCCCUGUCCGCGUUUUAGUUUGGACCACCCAGCCUUGGACAAUUCCCGCCAACCAGGCAAUUUGC: 0.63 ratio

Series 3
Target: RNA binding protein fox-1 homolog 2, RRM domain, GST-SBP tag (RBFOX2, Homo sapiens, UniProt O43251-10, residues 100-194)
Technique: RNA Bind-n-Seq
Form: RNA
Sample: in vitro
Tested at: 365 nM
Notes: natural RNA segment, single round, ends assumed
Baseline: no-protein control
Direction: higher = stronger binding
Quantity: RBNS enrichment (R)
Shared flanks, not repeated: GGGAGUUCUACAGUCCGACGAUC … UGGAAUUCUCGGGUGCCAA
Residues (chain): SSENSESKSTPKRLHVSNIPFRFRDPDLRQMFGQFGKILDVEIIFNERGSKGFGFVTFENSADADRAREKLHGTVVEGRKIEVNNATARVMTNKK
GGAAGGAAGAAAAAGCCAGCAAUCAACCAUCAUGUGUUUCUGUAGAAUCAGAUGUAAUAGGAAACAUAGUUUCAGAUUGCUUCUGACAAAGUCUGUGCCACAUUCCUCAC: 0.339
GGAAUGAUGUGGUGAUUUAGAAUGCAGUAUUGGCCAAGUCCAAGUUGUCAACUUAAGCGUCUGUUUACCAAAGACCGGGAACAGGGGCCCAAACAUGUCCAGUCCUCUUC: 0.496
CUGGAUUUCUCCACUGAAAACCUACUUGAGGUUUCUGGUCUGAAGGCUUAAGAGUCACAUCUUAGCACUUCCGCUCUCAGGCCUCCUCCUCCAUCACAGAUGUCUGGAUG: 0.32
GAGCAACUGGCUCCUGGCAGCUGUGCUUGUCCGUUUCCUGUCAGAGUGAUCCCAGGUUUCCUCCUGGCCCGUCCCAUGGUCCCUCCACAGGAGUGUGAGAGGAUGGGGGA: 0.21
AGCUGAGGCAGGAGGAUCAUGAAUUCAAAGCCAGCCUGGGAUACAUAGCAAGUUUCAGGGCAGUGUGGGUAUGAGGUUGUGUCUCAAAAACAUUUGAAAGCAUGUUGUGC: 3.89
GAUGGACACCAAGAGGUCUUCCCCCCACCCCCAGCUCCCCACCAAUCCCUAUGCUUUCUGAUGCACUGCCCCUCCCCCAUCACUGAAACAUUUAUACAAGGGCUUGUGUG: 0.967

Series 4
Target: Centromere-binding protein 1, full length, N-terminal tag (CBF1, Saccharomyces cerevisiae, UniProt P17106, residues 1-351)
UniProt P17106, sequence (whole entry, looked up): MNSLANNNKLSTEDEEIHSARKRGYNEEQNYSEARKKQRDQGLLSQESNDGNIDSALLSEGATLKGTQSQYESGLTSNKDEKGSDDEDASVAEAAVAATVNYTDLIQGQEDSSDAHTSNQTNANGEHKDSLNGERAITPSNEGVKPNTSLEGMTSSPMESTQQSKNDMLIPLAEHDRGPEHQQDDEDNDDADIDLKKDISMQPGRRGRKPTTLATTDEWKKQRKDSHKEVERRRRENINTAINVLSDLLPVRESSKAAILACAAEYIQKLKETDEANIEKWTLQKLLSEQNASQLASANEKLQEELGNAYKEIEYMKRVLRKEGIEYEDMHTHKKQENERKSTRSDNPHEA
Technique: protein-binding microarray
Form: double-stranded DNA, one strand shown
Sample: in vitro
Tested at: 0.8 µM
Notes: whole 60-bp probe, no competitor
Direction: higher = stronger binding
Quantity: fluorescence intensity
Shared flanks, not repeated: … GTCTTGATTCGCTTGACGCTGCTG
CTAAGCGTGTGCAGGTGATTTATTGATAAAGTCTTC: 1180 a.u.
GAAGCCGCTTTGTTCCTGATGTTCTCCATTTTTTAG: 499 a.u.
CCTAACTACTATAATCACGAGCGATAGCTTCGTACA: 826 a.u.
GAATTACAAACACATCACGGGCCACCGGAAAAATAG: 853 a.u.
GAATGCCAAGGGATGCACGAGAAAAGCACTTATTAG: 571 a.u.
CTAAAATTCATTTATGGTGTGAGTGTGCGAGCGTTC: 540 a.u.
CTAATTCCTATGTCCCATGTGGTTGGTTGCAATTTC: 617 a.u.
GAAGTGACGCACAATCACGGCTATGGCTCGGTGTAG: 526 a.u.
GAACAGATTGGGAACCGCATGACGTGGCGGCCTTAG: 536 a.u.
CCTAACTACTATATGCACGTTCTATAGCTTCGTACA: 587 a.u.
GAATTGTATGCTGGGTAGCTGATGTGCACCTAATAG: 506 a.u.
CTACTTCAATAAAGTCACGCGTAGTTAAAATATTTC: 2040 a.u.
GAACACTTCTGCATTCTGGTGGTGAGGGTTCTGTAG: 519 a.u.
GAAACAACTTTGTCACACGTTCTAAAAATAAAATAG: 779 a.u.
CTAAACTTTTGTCATCACCTGCTCTCTGAAGGTTTC: 1290 a.u.
GAAACACAGGTTGCGCACATGGGAAGTGCACTATAG: 573 a.u.
CTACTTCCTCTTCTGCACGTTTCTCTAGTAATGTTC: 665 a.u.
CTATCACGTGCATGTCACGTTTTTGCCGCCGAATTC: 13100 a.u.

A few entries again (series 4):
CTAAAATTCATTTATGGTGTGAGTGTGCGAGCGTTC: 540 a.u.
CTAATTCCTATGTCCCATGTGGTTGGTTGCAATTTC: 617 a.u.
GAAGTGACGCACAATCACGGCTATGGCTCGGTGTAG: 526 a.u.
GAACAGATTGGGAACCGCATGACGTGGCGGCCTTAG: 536 a.u.
